Results of several laboratories.
Compare with care: the assays were run in different laboratories. Numbers after ± are the reported error.

SMILES	test	test system	conditions	tissue uptake
N#C[C@@H]1CCCN1C(=O)CNC(=O)c1ccnc2ccc(OCCCN3CCN(C(=O)CCc4ccc5c(c4)CN4CCN6CC(=O)[O][68Ga-]([O]C(=O)C4)([O]5)[O]c4ccc(CCC(=O)N5CCN(CCCOc7ccc8nccc(C(=O)NCC(=O)N9CCC[C@H]9C#N)c8c7)CC5)cc4C6)CC3)cc12	–	BALB/c nude mice, U-87 MG xenograft, brain	2 h	0.08 ± 0.01 %ID/g
CCCC[C@H](NC(=O)CCCCCCCNC(=O)CN1CCN(CC(=O)O)CCN(CC(=O)O)CC1)C(=O)N[C@H]1CC(=O)NCCCC[C@@H](C(N)=O)NC(=O)[C@H](Cc2c[nH]c3ccccc23)NC(=O)[C@H](CCCNC(=N)N)NC(=O)[C@@H](Cc2ccccc2)NC(=O)[C@H](Cc2c[nH]cn2)NC1=O [fluorine-18 labelled]	–	C57 mice, B16/F10 melanoma, heart	intravenous, 1 h, together with: NDP-MSH 10 µg	0.5 ± 0.12 %ID/g
CCCC[C@H](NC(=O)CNC(=O)CNC(=O)[C@H](CCCCNC(=O)C(C)c1ccc(CC(C)C)cc1)NC(=O)CN1CCN(CC(=O)O)CCN(CC(=O)O)CCN(CC(=O)O)CC1)C(=O)N[C@H]1CC(=O)NCCCC[C@@H](C(N)=O)NC(=O)[C@H](Cc2c[nH]c3ccccc23)NC(=O)[C@H](CCCNC(=N)N)NC(=O)[C@@H](Cc2ccccc2)NC(=O)[C@H](Cc2c[nH]cn2)NC1=O (stereo partly shown) [lutetium-177 labelled]	–	C57 mice, tumour-bearing, stomach	2 h	2.64 ± 2.04 %ID/g
O=C(NCC1OC2CCC=CCCC2O1)c1ccc([18F])nc1 (stereo not shown)	–	healthy female BALB/c nude mice, pancreas	intravenous, 7.4 MBq per mouse, 5 min	4.6 ± 1.8 %ID/g
COc1ccc2c(c1)C(C)(C)C(/C=C/C1=C(Oc3ccc(C(=O)NCCCCOc4cc(CN(Cc5ccccn5)Cc5ccccn5)cc(CN(Cc5ccccn5)Cc5ccccn5)c4)cc3)C(=C/C=C3/N(CCCCS(=O)(=O)[O-])c4ccc(OC)cc4C3(C)C)CCC1)=[N+]2CCCCS(=O)(=O)[O-].O=[N+]([O-])[O-].O=[N+]([O-])[O-].[99Tc+].[C-]#[O+].[C-]#[O+].[C-]#[O+].[Zn+2]	–	BALB/c mice, S. aureus myositis, kidneys	12 h post-injection	2.98 %ID/g
O=C(O)CCCOc1ccc([18F])cc1-c1cc(-c2ccccc2C(F)(F)F)n(-c2ccccc2)n1	–	mice, large intestine	intravenous, 5 min	0.54 ± 0.03 %ID/g
N#C[C@@H]1CCCN1C(=O)CNC(=O)c1ccnc2ccc(OCCCN3CCN(C(=O)CCc4ccc5c(c4)CN4CCN(Cc6cc(CCC(=O)O)ccc6O)CC(=O)[O][Al-]([18F])([O]C(=O)C4)[O]5)CC3)cc12 (stereo partly shown)	–	BALB/c nude mice, U-87 MG xenograft, blood	1 h, blocking, together with: DOTA-FAPI-04 40 nmol/mouse co-injected	0.23 ± 0.03 %ID/g
CCCC[C@H](NC(=O)CNC(=O)CNC(=O)[C@H](CCCCNC(=O)[C@H](CC(=O)O)NC(=O)C(C)c1ccc(CC(C)C)cc1)NC(=O)CN1CCN(CC(=O)O)CCN(CC(=O)O)CCN(CC(=O)O)CC1)C(=O)N[C@H]1CC(=O)NCCCC[C@@H](C(N)=O)NC(=O)[C@H](Cc2c[nH]c3ccccc23)NC(=O)[C@H](CCCNC(=N)N)NC(=O)[C@@H](Cc2ccccc2)NC(=O)[C@H](Cc2c[nH]cn2)NC1=O (stereo partly shown) [lutetium-177 labelled]	–	C57 mice, tumour-bearing, tumor	intravenous, 0.037 MBq, 0.5 h	19.5 ± 3.12 %ID/g
COc1ccc(Nc2nc(Nc3ccc(OCCOCC[18F])cc3)ncc2Br)cc1	–	ICR mice, S180 tumour-bearing, heart	intravenous, 370 kBq, 5 min	2.37 ± 0.15 %ID/g
Cc1cc(C)n(CCN(CCN)CCCCCCNC(=O)[C@@H](N)Cc2c[nH]c3ccccc23)n1.[99Tc+].[C-]#[O+].[C-]#[O+].[C-]#[O+]	–	BALB/c nude mice, A549 xenograft, lung	intravenous, 15 min	5.08 ± 0.39 %IA/g
COc1ccc(Nc2nc(Nc3ccc(OCCOCCOCC[18F])cc3)ncc2Br)cc1	–	ICR mice, S180 tumour-bearing, liver	intravenous, 370 kBq, 120 min	1.85 ± 0.04 %ID/g
CCCC[C@H](NC(=O)CNC(=O)CNC(=O)[C@H](CCCCNC(=O)[C@H](CCN)NC(=O)C(C)c1ccc(CC(C)C)cc1)NC(=O)CN1CCN(CC(=O)O)CCN(CC(=O)O)CCN(CC(=O)O)CC1)C(=O)N[C@H]1CC(=O)NCCCC[C@@H](C(N)=O)NC(=O)[C@H](Cc2c[nH]c3ccccc23)NC(=O)[C@H](CCCNC(=N)N)NC(=O)[C@@H](Cc2ccccc2)NC(=O)[C@H](Cc2c[nH]cn2)NC1=O (stereo partly shown) [lutetium-177 labelled]	–	C57 mice, tumour-bearing, lung	2 h	1.42 ± 0.32 %ID/g
Cc1cc(C)n(CCN(CCN)CCCCCCNC(=O)[C@@H](N)Cc2c[nH]cn2)n1.[99Tc+].[C-]#[O+].[C-]#[O+].[C-]#[O+]	–	BALB/c nude mice A549 xenograft, intestine	intravenous, 15 min	11.4 ± 2.1 %ID/g
CCCC[C@H](NC(=O)COCCOCCNC(=O)CN1CCN(CC(=O)O)CCN(CC(=O)O)CC1)C(=O)N[C@H]1CC(=O)NCCCC[C@@H](C(N)=O)NC(=O)[C@H](Cc2c[nH]c3ccccc23)NC(=O)[C@H](CCCNC(=N)N)NC(=O)[C@@H](Cc2ccccc2)NC(=O)[C@H](Cc2c[nH]cn2)NC1=O [fluorine-18 labelled]	–	C57 mice B16-F10 melanoma, muscle	intravenous, 0.37 MBq, 1 h	0.31 ± 0.07 %ID/g
CC(C)C[C@H](NC(=O)[C@@H](CCCCNC(=O)[C@@H](Cc1ccccc1)NC(=O)CCCCCCCNC(=O)CN1CCN(CC(=O)O)CCN(CC(=O)O)CCN(CC(=O)O)CC1)NC(=O)[C@H](Cc1ccc(O)cc1)NC(=O)[C@H](CO)NC(=O)[C@H](Cc1c[nH]c2ccccc12)NC(=O)[C@H](Cc1c[nH]cn1)NC(=O)[C@@H]1CCC(=O)N1)C(=O)N[C@@H](CCCNC(=N)N)C(=O)N1CCC[C@H]1C(=O)NCC(N)=O [indium-111 labelled]	biodistribution	male athymic nude mice, DU-145 prostate cancer xenograft, stomach	intravenous, 0.037 MBq, 1 h post-injection	0.61 ± 0.28 %ID/g
O=C(NCC1OC2CCC=CCCC2O1)c1ccc(COCCOCCOCC[18F])cc1 (stereo not shown)	–	healthy female BALB/c nude mice, heart	intravenous, 7.4 MBq per mouse, 60 min	2.3 ± 0.2 %ID/g

Some of these lines once more:
SMILES	test	test system	conditions	tissue uptake
CCCC[C@H](NC(=O)COCCOCCNC(=O)CN1CCN(CC(=O)O)CCN(CC(=O)O)CC1)C(=O)N[C@H]1CC(=O)NCCCC[C@@H](C(N)=O)NC(=O)[C@H](Cc2c[nH]c3ccccc23)NC(=O)[C@H](CCCNC(=N)N)NC(=O)[C@@H](Cc2ccccc2)NC(=O)[C@H](Cc2c[nH]cn2)NC1=O [fluorine-18 labelled]	–	C57 mice B16-F10 melanoma, muscle	intravenous, 0.37 MBq, 1 h	0.31 ± 0.07 %ID/g
N#C[C@@H]1CCCN1C(=O)CNC(=O)c1ccnc2ccc(OCCCN3CCN(C(=O)CCc4ccc5c(c4)CN4CCN(Cc6cc(CCC(=O)O)ccc6O)CC(=O)[O][Al-]([18F])([O]C(=O)C4)[O]5)CC3)cc12 (stereo partly shown)	–	BALB/c nude mice, U-87 MG xenograft, blood	1 h, blocking, together with: DOTA-FAPI-04 40 nmol/mouse co-injected	0.23 ± 0.03 %ID/g
